{"data": "Measured values collected from several papers", "note": "Protocols differ between the studies behind these lines. Several values in a cell are separate wells, animals, samples, runs or records. Numbers after ± are the reported error."}
{"SMILES": "CN1CCC[C@]1(C)/C=C/S(=O)(=O)NC(=O)Nc1c2c(cc3c1CCC3)CCC2", "system": "human, whole blood ex vivo", "setting": "25 mg single dose, 24 h, single ascending dose, together with: LPS and ATP", "endpoint": "IL-18 inhibition", "value": "82.3%"}
{"SMILES": "O=S(=O)(NCc1ccncc1)c1ccc(C2CCCCC2)cc1", "assay": "immunohistochemistry", "system": "CK-p25 mice male, hippocampal dentate gyrus", "setting": "ip, 0.1 mg/kg daily, 2 wk", "how to read": "baseline: vehicle", "endpoint": "IBA1 surface area reduction", "value": "~54%"}
{"SMILES": "CC(=O)[O-].O.[Cu+2].[O-]c1ccc(Br)cc1C=NCCN1CCOCC1", "assay": "FRAP", "setting": "240 µM", "endpoint": "ferric reducing power", "value": "66.7%"}
{"SMILES": "COC1CN([C@H]2CC[C@H]([C@@]3(C)Oc4c(Cl)cc(C(=O)NCc5c(SC)cc(C)[nH]c5=O)c(C)c4O3)CC2)C1", "assay": "RNA-seq, measured: MMP8 mouse homolog", "system": "mouse, HT-1376 xenograft, whole blood", "setting": "dose not given", "how to read": "baseline: vehicle", "endpoint": "log2 fold change", "value": 1.38}
{"SMILES": "COc1c(Cl)cccc1Nc1c(-c2ccncc2C#C[C@@]2(C)CCCN2C(=O)/C=C/CN(C)C)[nH]c2c1C(=O)NCC2", "system": "female BALB/c nude mouse, sample A PDX", "setting": "50 mg/kg once daily, 28 days, EGFR ASV", "endpoint": "tumour growth inhibition", "value": "110%"}
{"SMILES": "COCC1CN(C2CCN(c3cc(OC)c(Nc4ncc(Br)c(Nc5ccc6c(c5P(C)(C)=O)OCCO6)n4)cc3C)CC2)C1", "assay": "RECIST 1.1", "system": "advanced EGFR-mutant NSCLC patients", "setting": "240 mg once daily", "endpoint": "partial response", "value": "0%"}
{"SMILES": "COc1cc(O)ccc1CCC(c1ccc(O)cc1)c1cc2c(c(C)c1O)OC(c1ccc(O)cc1)CC2 (mixture of isomers)", "system": "human blood", "setting": "10 µM, together with: A23187", "endpoint": "LTB4 isomers level", "value": "107 ± 67 pg/mL"}
{"SMILES": "CCCCCCCCCCCCCCCC(=O)OCC(CSC[C@H](N)C(=O)N[C@@H](CO)C(=O)N[C@@H](CCCCN)C(=O)N[C@@H](CCCCN)C(=O)N[C@@H](CCCCN)C(=O)N[C@@H](CCCCN)C(=O)NCCCCCC(=O)N[C@@H](CCCCN)C(=O)N[C@@H](CC(C)C)C(=O)N[C@H](C(=O)N[C@@H](Cc1ccccc1)C(=O)N[C@@H](Cc1ccccc1)C(=O)N[C@@H](Cc1ccc2ccccc2c1)C(=O)O)C(C)C)OC(=O)CCCCCCCCCCCCCCC (stereo partly shown)", "system": "APP/PS1 transgenic mouse, cortex", "setting": "local cortical injection, dose not given, unit not given", "how to read": "baseline: injected over adjacent side", "endpoint": "Iba1 level", "value": "2.38 and 2.4 and 3.39 and 4.64 and 3.61 and 2.99 and 5.47"}
{"SMILES": "COc1ccc(C(=O)CCc2cc(C(CCc3ccc(O)cc3OC)c3ccc(O)cc3)c(O)cc2OC)cc1 (racemic)", "system": "human blood", "setting": "30 µM, together with: A23187", "endpoint": "LTB4 isomers level", "value": "327 ± 156 pg/mL"}
{"SMILES": "COCCOCCOCCNC(=O)Cc1cc(CC(=O)N[C@H]2C[C@H]3C(=O)Nc4cc(OCCOCCOCCOC)cc(n4)C(=O)N4CCC[C@H]4C(=O)Nc4cc(OCCOCCOCCOC)cc(n4)C(=O)N4CCC[C@H]4C(=O)Nc4cc(OCCOCCOCCOC)cc(n4)C(=O)N3C2)cc(CC(=O)N[C@H]2C[C@H]3C(=O)Nc4cc(OCCOCCOCCOC)cc(n4)C(=O)N4CCC[C@H]4C(=O)Nc4cc(OCCOCCOCCOC)cc(n4)C(=O)N4CCC[C@H]4C(=O)Nc4cc(OCCOCCOCCOC)cc(n4)C(=O)N3C2)c1", "assay": "anion binding, ITC", "system": "water/methanol 95 vol% (97.7 mol%)", "setting": "298 K, together with: sodium sulfate", "endpoint": "ΔH", "value": "1.22 ± 0.0239 kcal/mol"}
{"note": "Some of these lines once more:"}
{"SMILES": "COc1ccc(C(=O)CCc2cc(C(CCc3ccc(O)cc3OC)c3ccc(O)cc3)c(O)cc2OC)cc1 (racemic)", "system": "human blood", "setting": "30 µM, together with: A23187", "endpoint": "LTB4 isomers level", "value": "327 ± 156 pg/mL"}
